Experimental data collected from several papers.
Every numbered part comes from another study and shows a few of its results, in no order. Changes are numbered by the printed parent chain.

Set 1
Target: ABI1, truncated, D143A, DHFR fusion (Arabidopsis thaliana)
Method: DHFR PCA, deep sequencing
Matrix: yeast
Notes: methotrexate growth selection, single substitutions
With: (+)-ABA 4.8 µM
Baseline: wild-type fitted maximum
Direction: higher = stronger binding
Parent: PYL1, truncated, DHFR fusion (Arabidopsis thaliana); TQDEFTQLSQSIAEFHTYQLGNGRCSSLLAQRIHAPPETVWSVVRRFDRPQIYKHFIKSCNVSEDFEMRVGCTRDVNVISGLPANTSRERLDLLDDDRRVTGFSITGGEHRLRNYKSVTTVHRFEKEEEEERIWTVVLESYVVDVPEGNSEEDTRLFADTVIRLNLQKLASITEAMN
`G71H` — result for “relative binding score”: 6.07%.
`R111S`: “relative binding score” 4.06%.
Under “relative binding score”, `L29C` is recorded as 39.2%.
Under “relative binding score”, `R163K` is recorded as 80.2%.

Set 2
Target: Interferon regulatory factor 5, full length, phosphomimetic (IRF5, Homo sapiens, UniProt Q13568-2, residues 1-514, K96S/S451D/S453D/S456D/S462D)
Method: protein-binding microarray
Molecule type: double-stranded DNA, one strand shown
Matrix: in vitro
Tested at: 250 nM
Notes: 60-bp whole probe
With: salmon DNA 0.4 mg/ml
Baseline: random background probes
Direction: higher = stronger binding
All sequences stand within: GCCTAGCAC … GTCTTGATTCGCTTGACGCTGCTG
With `TCAAATAATCTTTTCACACTGTGCTAG` the log fluorescence was 0.845 z-score.
For `TTAGATTCCAGTTTCAATTAGTGCTAG`, the log fluorescence was 3.17 z-score.
The log fluorescence of `TCAACTTTCCAATTGTCACTGTGCTAG` is reported as 1.06 z-score.
`TGAGGTTTCGACTTTCGGTTAGTGCTA` gave a log fluorescence of 9.83 z-score.
`GACGATTTCGACACTGGGGACGTGCTA` gave a log fluorescence of 1.69 z-score.
The log fluorescence of `TCACAATTCTCTTTTCAACTGTGCTAG` is reported as 0.898 z-score.
`GACAATATCAGTTTCGAGACGTGCTAG` has a log fluorescence of 7.16 z-score.
`TTAGGTTTCGGGACTGGGCTAGTGCTA` gave a log fluorescence of 5.66 z-score.

Set 3
Target: CCNB2, cyclin fold, Cln2 fusion (human)
Method: yeast growth competition, sequencing
Matrix: yeast
Notes: weak parent motif
Baseline: not given
Direction: higher = stronger binding
Parent: ORC1 docking peptide (human); PRARKRLELGNLG
`R4G` — result for “normalised enrichment score”: 0.256.
Under “normalised enrichment score”, `G13P` is recorded as 0.0981.
For `R6I`, “normalised enrichment score” read 0.784.
`G13Q` — result for “normalised enrichment score”: -0.254.
`P1G` — result for “normalised enrichment score”: -0.48.
`L9R` — result for “normalised enrichment score”: 0.883.
For `R2H`, “normalised enrichment score” read 0.215.

Single results of other studies
`PhoQ, residues 284 288 289 292 302 303 SASVAL` gave a fold induction of 0.373 (PhoP, residues 12 14 15 18 19 NYFTV (Escherichia coli, UniProt P23836); Sort-seq, measured: YFP reporter; E. coli; PhoQ-PhoP variant library, with: 10 µM Mg2+; baseline: high Mg2+ state, higher = stronger signaling).

Repeated from above (set 3):
`G13Q` — result for “normalised enrichment score”: -0.254.
